# Measured values collected from several papers.
# A part holds a random share of what one study measured.

# Study 1
# Target: Replicase polyprotein 1ab, polymerase (rep, Severe acute respiratory syndrome coronavirus 2, UniProt P0DTD1)
# Effect on: enzyme activity
# Action: inhibitor
# Tested at: 20 µM
SMILES,inhibition [%]
O=C(c1ccccn1)c1cnn2c(-c3ccncc3)ccnc12,-10.5
CC(=O)N[C@H](Cc1ccc2ccccc2c1)C(=O)N[C@H](Cc1ccc(Cl)cc1)C(=O)N[C@H](Cc1cccnc1)C(=O)N[C@@H](CO)C(=O)N[C@@H](Cc1ccc(O)cc1)C(=O)N[C@H](CCCNC(N)=O)C(=O)N[C@@H](CC(C)C)C(=O)N[C@@H](CCCNC(=N)N)C(=O)N1CCC[C@H]1C(=O)N[C@H](C)C(N)=O,16
CNc1cc2[nH]c(=O)n(-c3ccc(NC(=O)NS(=O)(=O)c4ccc(Cl)s4)cc3)c(=O)c2cc1F,-12
C=CCN1CC[C@]2(C)c3cc(O)ccc3C[C@@H]1[C@@H]2C,-3.12
CCOc1ccccc1C(=O)O,-0.8
COc1ccc(-c2ccc(=N)n(CCCC(=O)O)n2)cc1,1.62
COc1cnc(NS(=O)(=O)c2ccc(N)cc2)nc1,19.8
Cc1cc(O)c2c(c1)C(=O)c1cc(O)cc(O)c1C2=O,2.2
COc1ccc([C@@H]2CC(=O)c3c(O)cc(O[C@@H]4O[C@H](CO)[C@@H](O)[C@H](O)[C@H]4O[C@@H]4O[C@@H](C)[C@H](O)[C@@H](O)[C@H]4O)cc3O2)cc1O,-3.72
CCCCn1ccc(N2CCC(c3ccccc3)CC2)c(Cl)c1=O,-4.55
CCCCCCCCCCCCCCCC[N+](C)(C)C,-3.16
Cc1nc[nH]c1CCN,-9.73
C=C[C@@]1(C)CC(=O)[C@]2(O)[C@@]3(C)[C@@H](O)CCC(C)(C)[C@@H]3[C@H](OC(=O)CCN(C)C)[C@H](OC(C)=O)[C@@]2(C)O1,-6.58
Oc1cc(CNC(=S)/C=C/c2cc(O)c(O)c(Br)c2)cc(O)c1O,81.9
CN(C)CCOC(=O)C(c1ccccc1)C1(O)CCCC1 (stereo not shown),4.65
CSc1ccc([C@@H]2CN3CCC[C@@H]3c3ccccc32)cc1 (racemic),-5.84
O=c1c2ccccc2oc2ccccc12,-10.7
COc1ncc(-c2ccc3nccc(-c4ccnnc4)c3c2)cc1NS(=O)(=O)c1ccc(F)cc1F,16.1
Cc1cc(O)c(C(C)C)cc1Cl,0.85
CCOC(=O)[C@@](C)(N)Cc1ccc(O)c(O)c1,1.05
CNCC[C@H](Oc1cccc2ccccc12)c1cccs1,6.45
COc1cc2/c(=N/c3ccc(Br)cc3F)nc[nH]c2cc1OCC1CCN(C)CC1,-0.9
CN(C)CCOc1ccc(/C(=C(/CCCl)c2ccccc2)c2ccccc2)cc1,-12
CC(=O)N[C@H]1CSSC[C@@H](C(N)=O)NC(=O)[C@H](C(C)C)NC(=O)[C@H](C)NC(=O)[C@H](Cc2c[nH]cn2)NC1=O,0.11
O=C(O)c1cc(N2N=C(C(F)(F)F)/C(=C/c3ccc(-c4ccccc4)o3)C2=O)ccc1Cl,32.5

# Study 2
# Target: Hepatocyte nuclear factor 3-beta, forkhead domain (FOXA2, Homo sapiens, UniProt Q9Y261, residues 142-269)
# Technique: protein-binding microarray
# Molecule type: double-stranded DNA, one strand shown
# Sample: in vitro
# Tested at: not given
# Setting: k-mer, scored over probes, only values ≥0.25
# Direction: higher = stronger binding
# Construct (chain): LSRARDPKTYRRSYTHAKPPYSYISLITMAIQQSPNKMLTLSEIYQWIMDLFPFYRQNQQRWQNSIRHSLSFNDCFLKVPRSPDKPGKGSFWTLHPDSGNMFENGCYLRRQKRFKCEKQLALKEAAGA
Sequence,E-score
AATAACAG,0.311
AATTGTTA,0.299
GATACACA,0.302
CAACAAAA,0.28
AATATAAC,0.382
ATCAATTA,0.299
ACACAAAG,0.254
TACTGTAA,0.258

# Study 3
# Target: Replicase polyprotein 1ab, main protease (rep, Severe acute respiratory syndrome coronavirus 2, UniProt P0DTD1)
# Effect on: enzyme activity
# Action: inhibitor
# Tested at: 20 µM
SMILES,inhibition
COc1cc(CC2NCCc3cc(O)c(O)cc32)cc(OC)c1OC (stereo not shown),-5.56%
CC1(C)CC(Nc2ccc(Nc3ccccc3)cc2)CC(C)(C)N1,27.9%
CC(C)(C)OC(=O)NCCc1nnc(S(=O)(=O)Cc2ccc(Cl)cc2Cl)o1,94.9%

# Study 4
# Target: Interferon regulatory factor 3, full length, phosphomimetic (IRF3, Homo sapiens, UniProt Q14653, residues 1-427, S386D/S396D/S398D/S402D/T404D/S405D)
# Technique: protein-binding microarray
# Molecule type: double-stranded DNA, one strand shown
# Sample: in vitro
# Tested at: 2540 nM top
# Setting: 60-bp whole probe
# Together with: salmon DNA 0.4 mg/ml
# Relative to: random background probes
# Direction: higher = stronger binding
# Constant ends, left off below: GCCTAGCAC … GTCTTGATTCGCTTGACGCTGCTG
# Target sequence (chain): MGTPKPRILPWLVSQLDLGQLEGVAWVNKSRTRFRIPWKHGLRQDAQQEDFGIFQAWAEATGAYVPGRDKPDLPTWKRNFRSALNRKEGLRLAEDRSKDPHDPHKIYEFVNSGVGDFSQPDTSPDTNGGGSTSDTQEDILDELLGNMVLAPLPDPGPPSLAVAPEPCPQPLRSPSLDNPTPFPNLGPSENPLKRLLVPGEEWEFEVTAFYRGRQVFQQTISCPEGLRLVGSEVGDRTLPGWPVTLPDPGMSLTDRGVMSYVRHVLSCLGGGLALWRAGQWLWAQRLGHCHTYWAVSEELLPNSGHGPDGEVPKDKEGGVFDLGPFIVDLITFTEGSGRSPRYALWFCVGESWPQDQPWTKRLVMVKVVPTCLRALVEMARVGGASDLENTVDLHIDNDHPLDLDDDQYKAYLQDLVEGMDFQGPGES
Sequence,fitted relative affinity
GACGGGTTCCTACTGCTGACGTGCTAG,0.748 z-score
TTAGATATCGGTTATCGATTAGTGCTA,1.54 z-score
GACGGTATCCTTCTCCTGATGTGCTAG,6.38 z-score
TTAGATTTCAGTCTCGAGTAGTGCTAG,2.14 z-score
TTAGGTCGCGGTCTCGGTTAGTGCTAG,0.294 z-score
GACGGTCTCCTACTGCTGGCGTGCTAG,1.3 z-score
TTCTATCTCTGTTTTTGCTTGTGCTAG,1.03 z-score
TTCACTTTAAATTAGACTTAGTGCTAG,0.487 z-score

# Study 5
# Cell line: HEK-293T/ACE2
# Effect on: pseudovirus infection
# Organism: VSV pseudotyped with SARS-CoV-2 spike
# Tested at: concentration not given
# Relative to: vehicle-treated
Structure (SMILES),GFP-positive cells
CC[C@H](C)[C@H]1O[C@]2(CC[C@@H]1C)C[C@@H]1C[C@@H](C/C=C(\C)[C@@H](O[C@H]3C[C@H](OC)[C@@H](O[C@H]4C[C@H](OC)[C@@H](O)[C@H](C)O4)[C@H](C)O3)[C@@H](C)/C=C/C=C3\CO[C@@H]4[C@H](O)C(C)=C[C@@H](C(=O)O1)[C@]34O)O2,33.8%
CC(C)C[C@H](NC(=O)CNC(=O)c1cc(Cl)ccc1Cl)B(O)O,22%
CC[C@H](Nc1ncnc2[nH]cnc12)c1nc2cccc(F)c2c(=O)n1-c1ccccc1,68.2%

# Study 6
# Target: Phosphate system positive regulatory protein PHO4, full length, GST-tagged (PHO4, Saccharomyces cerevisiae, UniProt P07270, residues 1-312)
# Technique: competition protein-binding microarray
# Molecule type: double-stranded DNA, one strand shown
# Sample: in vitro
# Tested at: 2 µM
# Setting: whole 60-bp probe, lowest competitor level
# Together with: Cbf1 competitor, 0.05 µM
# Direction: higher = stronger binding
# Constant ends, left off below: … GTCTTGATTCGCTTGACGCTGCTG
# Target sequence (chain): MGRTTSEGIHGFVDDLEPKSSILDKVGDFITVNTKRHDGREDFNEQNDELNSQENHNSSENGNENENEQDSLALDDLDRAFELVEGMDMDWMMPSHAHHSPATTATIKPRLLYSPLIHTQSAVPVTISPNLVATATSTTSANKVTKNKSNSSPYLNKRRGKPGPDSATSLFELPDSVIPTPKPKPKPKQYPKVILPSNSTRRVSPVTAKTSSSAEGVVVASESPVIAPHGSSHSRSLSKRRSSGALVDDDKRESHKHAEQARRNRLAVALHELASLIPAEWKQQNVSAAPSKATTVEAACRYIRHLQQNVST
Sequence,fluorescence intensity
CTTTCCCGATCTTGAGTCGTGGGTGTAGCACATTTG,7150 a.u.
AAAGCGGTAATTTGCGAAGTGGGTGCAGATATCTAT,4020 a.u.
AGCCACATCAACTGTCACATGTATGGAAAACTCGCA,7940 a.u.
TGCGCAACAACTTGCTTCGTGGGTGTATGTCTAGAA,6030 a.u.
CGTCCTAGTGATTGCCCAGTGGGTGCCATGAGGAAG,6250 a.u.
AATTGGAGAACACATTTCGTGGGTATTTCGACCCAA,5060 a.u.
AAAGCGGTAATTTGCCCCGTGGGTGCAGATATCTAT,9740 a.u.
TAGTCTTTGTCTAGCTTCGTGCTTTTTAGCAAAAGC,4800 a.u.

# A few entries again (study 6):
Sequence,fluorescence intensity
TGCGCAACAACTTGCTTCGTGGGTGTATGTCTAGAA,6030 a.u.
CTTTCCCGATCTTGAGTCGTGGGTGTAGCACATTTG,7150 a.u.
CGTCCTAGTGATTGCCCAGTGGGTGCCATGAGGAAG,6250 a.u.
AATTGGAGAACACATTTCGTGGGTATTTCGACCCAA,5060 a.u.
AAAGCGGTAATTTGCCCCGTGGGTGCAGATATCTAT,9740 a.u.
